Assay results of several laboratories.
A part holds a random share of what one study measured.

Set 1
Target: Transcription factor Sp1 (SP1, Homo sapiens, UniProt P08047, residues 1-785, full length assumed)
UniProt P08047, sequence (whole entry, looked up): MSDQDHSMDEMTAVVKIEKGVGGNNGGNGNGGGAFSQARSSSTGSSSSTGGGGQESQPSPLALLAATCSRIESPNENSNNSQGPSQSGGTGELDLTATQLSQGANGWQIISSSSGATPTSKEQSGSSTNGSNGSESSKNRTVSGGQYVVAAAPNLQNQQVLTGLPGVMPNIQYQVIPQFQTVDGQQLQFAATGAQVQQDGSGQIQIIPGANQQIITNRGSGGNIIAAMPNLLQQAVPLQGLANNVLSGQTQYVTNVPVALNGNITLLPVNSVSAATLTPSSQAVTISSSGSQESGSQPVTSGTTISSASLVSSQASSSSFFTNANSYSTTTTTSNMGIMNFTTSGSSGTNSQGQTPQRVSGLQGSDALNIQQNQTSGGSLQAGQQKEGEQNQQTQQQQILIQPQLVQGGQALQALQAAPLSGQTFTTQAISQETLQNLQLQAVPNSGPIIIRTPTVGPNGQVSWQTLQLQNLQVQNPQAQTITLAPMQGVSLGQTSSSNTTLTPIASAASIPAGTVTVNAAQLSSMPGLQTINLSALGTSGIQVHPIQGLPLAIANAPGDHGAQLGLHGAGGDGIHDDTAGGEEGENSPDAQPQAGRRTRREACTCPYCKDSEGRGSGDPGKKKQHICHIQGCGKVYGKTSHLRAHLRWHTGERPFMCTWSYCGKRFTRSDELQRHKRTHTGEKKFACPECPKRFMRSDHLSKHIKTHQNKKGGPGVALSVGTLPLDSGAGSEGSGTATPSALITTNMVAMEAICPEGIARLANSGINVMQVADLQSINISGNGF
Method: protein-binding microarray
Form: double-stranded DNA, one strand shown
Matrix: in vitro
Tested at: not given
Setting: k-mer, scored over probes, only values ≥0.25
Direction: higher = stronger binding
| Sequence | E-score |
| --- | --- |
| CTACCCAC | 0.281 |
| ACGAGGGG | 0.257 |
| CGCCCCCA | 0.426 |

Set 2
Target: Prothrombin, mature alpha-thrombin (F2, Homo sapiens, UniProt P00734)
Method: aptamer microarray, sandwich
Form: DNA with 2'F-ANA
Matrix: in vitro
Tested at: 200 nM
Setting: whole 15-mer aptamer, many near background
With: Cy3 exosite-II aptamer, 400 nM
Direction: higher = stronger binding
| Sequence | mean fluorescence intensity [a.u.] |
| --- | --- |
| GGTTGGTGTGGTTGG (2'F-ANA at 1 2 3 4 5 7 9 12 13) | 71.8 |
| GGTTGGTGTGGTTGG (2'F-ANA at 1 2 4 5 6 8 10 11) | 50.1 |
| GGTTGGTGTGGTTGG (2'F-ANA at 2 5 8 12) | 154 |

Mixed results
| Molecule | target | assay | system | conditions | how to read | endpoint | result |
| --- | --- | --- | --- | --- | --- | --- | --- |
| PhoQ, residues 284 288 289 292 302 303 ALAMYF | PhoP, residues 12 14 15 18 19 FWNTL (Escherichia coli, UniProt P23836) | Sort-seq, measured: YFP reporter | E. coli | PhoQ-PhoP variant library, with: 10 µM Mg2+ | relative to: high Mg2+ state, higher = stronger signaling | fold induction | 45.9 |
| GACATAGC | Histone acetyltransferase KAT6A, both winged helices, GST fusion (KAT6A, Homo sapiens, UniProt Q92794, residues 1-181) | protein binding microarray | double-stranded DNA, one strand shown, in vitro | not given, 8-mer, flanks averaged, mean of 2 arrays, mostly near background | relative to: not given, higher = stronger binding | E-score | 0.0431 |

Some of these lines once more (mixed results):
| Molecule | target | assay | system | conditions | how to read | endpoint | result |
| --- | --- | --- | --- | --- | --- | --- | --- |
| GACATAGC | Histone acetyltransferase KAT6A, both winged helices, GST fusion (KAT6A, Homo sapiens, UniProt Q92794, residues 1-181) | protein binding microarray | double-stranded DNA, one strand shown, in vitro | not given, 8-mer, flanks averaged, mean of 2 arrays, mostly near background | relative to: not given, higher = stronger binding | E-score | 0.0431 |
